Measured values collected from several papers.
Each numbered part is a random draw from the data of one study; scales do not carry over between parts. Substitutions count along the parent as printed.

Set 1
Target: CCNE1, cyclin fold, Cln2 fusion (human)
Method: yeast growth competition, sequencing
Matrix: yeast
Notes: strong parent motif
Reference: not given
Direction: higher = stronger binding
Parent: SCAPER docking peptide (human); SNARRSLNFGGST
Change | normalised enrichment score
N8S | 1.85
R5A L7A | -0.167
N8V | 0.379
R5M | 0.943
S6Y | 1.67
N2T | 1.13
F9A | 0.222
R4L | -0.395
T13V | 1.56
N2E | 0.303
A3D | -0.0657
N8A | 0.222
G10D | 1.11
G11F | 1.02
S12A | 1.38
N8L | -0.0582
T13I | 1.31
S1I | 0.375
T13P | 1.8
L7Q | 0.689
G10T | 1.12
L7A | 0.685
R5D | 0.666
N2H | 0.812
F9D | 0.324

Set 2
Target: ABI1, truncated, D143A, DHFR fusion (Arabidopsis thaliana, UniProt P49597)
Method: DHFR PCA, dose-response
Matrix: yeast
Notes: Hill fit, mean, not affinity
With: (+)-ABA, dose series
Direction: lower = more sensitive
Parent: PYL1, truncated, DHFR fusion (Arabidopsis thaliana, UniProt Q8VZS8); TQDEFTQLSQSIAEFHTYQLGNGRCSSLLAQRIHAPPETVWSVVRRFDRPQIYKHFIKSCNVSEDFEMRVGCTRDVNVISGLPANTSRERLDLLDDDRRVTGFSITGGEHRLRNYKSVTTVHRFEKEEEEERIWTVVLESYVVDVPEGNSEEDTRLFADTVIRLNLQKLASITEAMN
Change | ABA EC50 [µM]
S104A | 43
I52A | 2.85
Q7M | 1.68
T101S | 11.3
D96F | 433
F47W | 27.8
L28T | 14.6
E4C | 2.39
G23R | 5.77
D48C | 134
R99I | 535
L20S | 3.12
V145T | 8.86
R49Q | 1.63
R69N | 3.77
L20R | 1.7
D92I | 63.2
E151A | 2.18
V143A | 40.1
I172Y | 2.97

Set 3
Target: Interferon regulatory factor 7, full length, phosphomimetic (IRF7, Homo sapiens, UniProt Q92985, residues 1-503, S471D/S472D/S475D/S476D/S477D/S483D/S484D/S487D)
UniProt Q92985, sequence (whole entry, unmodified, looked up): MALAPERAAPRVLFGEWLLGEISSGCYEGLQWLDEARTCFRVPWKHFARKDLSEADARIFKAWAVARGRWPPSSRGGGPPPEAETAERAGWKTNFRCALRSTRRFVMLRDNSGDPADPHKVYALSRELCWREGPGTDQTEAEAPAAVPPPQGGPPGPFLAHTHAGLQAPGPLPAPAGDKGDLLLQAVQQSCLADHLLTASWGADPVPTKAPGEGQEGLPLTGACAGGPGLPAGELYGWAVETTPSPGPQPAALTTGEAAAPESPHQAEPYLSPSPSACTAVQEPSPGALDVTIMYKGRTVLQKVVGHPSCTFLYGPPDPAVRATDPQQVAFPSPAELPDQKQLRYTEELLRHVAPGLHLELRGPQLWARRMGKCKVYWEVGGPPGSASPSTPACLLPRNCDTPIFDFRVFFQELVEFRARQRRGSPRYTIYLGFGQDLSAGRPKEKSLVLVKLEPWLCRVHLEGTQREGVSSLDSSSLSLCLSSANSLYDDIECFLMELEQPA
Method: protein-binding microarray
Molecule type: double-stranded DNA, one strand shown
Matrix: in vitro
Tested at: 2200 nM top
Notes: 60-bp whole probe
With: salmon DNA 0.4 mg/ml
Reference: random background probes
Direction: higher = stronger binding
Constant ends, left off below: GCCTAGCAC … GTCTTGATTCGCTTGACGCTGCTG
Strand | fitted relative affinity
GACGGTATCAGTTTCGAGACGTGCTAG | 3.57 z-score
AATAGCTTTTCATTTTTTAACGTGCTA | 0.856 z-score
GACGGACTGGCTTTCGGGACGTGCTAG | 1.42 z-score
GGTCCTCTAGGAATGTAACTGTGCTAG | 0.0387 z-score
GACGGTCTCAGTATCGGGACGTGCTAG | -0.0439 z-score
TCAATGTTCCCTATATAACTGTGCTAG | 1.4 z-score
GACGAACTGGGTATCGAGACGTGCTAG | -0.115 z-score
TCAATTGTGGTTTTCATACTGTGCTAG | 1.39 z-score
TTAGGTTTCGGACTGGGTTGGTGCTAG | 3.29 z-score
TTAGATAGCAGTTTCGATTAGTGCTAG | 4.88 z-score
TCAGAATTAGGTTTCACACTGTGCTAG | 1.21 z-score
TGAGGTTTCCTTTCCCTTTAGTGCTAG | 4.59 z-score
TCAAATATATATATTGTACTGTGCTAG | 0.0337 z-score
TCATTTTTCTACTTCTGACTGTGCTAG | 3.62 z-score
GACGGTATCGGTTATCGGGACGTGCTA | 0.24 z-score
TGAGCTTACAATATAAAAGGGTGCTAG | -0.96 z-score
GACGGTCTCCTACTGATGACGTGCTAG | 0.261 z-score
TGAGGTTTTCTAATGTTTTTGTGCTAG | 0.552 z-score
GACGGTTTCCTTATCCCGACGTGCTAG | 3.13 z-score

Set 4
Target: Histone acetyltransferase KAT6A, winged helix 2, GST fusion (KAT6A, Homo sapiens, UniProt Q92794, residues 85-181)
Method: protein binding microarray
Molecule type: double-stranded DNA, one strand shown
Matrix: in vitro
Tested at: not given
Notes: 8-mer, flanks averaged, mean of 2 arrays, mostly near background
Reference: not given
Direction: higher = stronger binding
Target sequence (chain): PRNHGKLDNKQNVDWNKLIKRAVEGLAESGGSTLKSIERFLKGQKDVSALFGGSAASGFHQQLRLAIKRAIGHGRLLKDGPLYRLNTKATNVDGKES
Strand | E-score
ACTACCCA | -0.106
AGTGCGAC | 0.0911
TTGGCCAA | -0.161
ACCACCAT | 7.5e-05
GGCCTAAC | -0.00082
TACAAGGA | -0.0281
TGATAGAA | -0.00968
CACCCGCC | 0.195
AATGACAA | -0.0369
CCGTCTGA | -0.0609
CGACCACG | -0.0428
CTCTGACC | -0.0526
GCGCTGTA | -0.0524
ACTCGCCA | 0.0696
ACGGCCGA | 0.166
CGGTATAA | 0.00705
ACGAGTCG | 0.0278
CAAATTCC | -0.0998
ATGGCTTC | 0.0288
CCCACCAA | 0.0203

Set 5
Target: RING finger protein unkempt homolog, zinc fingers 1-6, GST-SBP tag (UNK, Homo sapiens, UniProt Q9C0B0, residues 30-357)
UniProt Q9C0B0, sequence (30-357, looked up): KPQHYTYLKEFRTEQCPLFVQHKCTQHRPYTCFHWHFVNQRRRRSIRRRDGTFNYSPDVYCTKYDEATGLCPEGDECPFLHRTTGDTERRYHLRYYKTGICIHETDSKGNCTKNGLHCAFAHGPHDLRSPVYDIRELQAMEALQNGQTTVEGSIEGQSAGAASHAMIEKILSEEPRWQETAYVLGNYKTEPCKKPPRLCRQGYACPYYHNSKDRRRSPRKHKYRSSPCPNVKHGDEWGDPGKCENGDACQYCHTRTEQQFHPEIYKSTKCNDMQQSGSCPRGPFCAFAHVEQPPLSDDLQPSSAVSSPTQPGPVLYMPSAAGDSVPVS
Method: RNA Bind-n-Seq
Molecule type: RNA
Matrix: in vitro
Tested at: not given
Notes: RNA with constant flanks, human and mouse sites, ends assumed
Reference: input RNA pool
Direction: higher = stronger binding
Strand | bound/input enrichment
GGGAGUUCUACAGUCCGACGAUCAUUGAAAAUUCACAGAUAAUUCAGAAAGAGGACUUAUGCAUUUCUCCAGGAAAGCUUGUCUGGGUUCUAUACUGUGAUCUCAUUUGCCUCGACUACGAUGGAAACAUUUUGGAUGCCUGCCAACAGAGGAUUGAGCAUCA | 0.197 ratio
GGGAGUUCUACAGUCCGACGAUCUUGAUUGACCAGAAAGUGUAUGAGCUACAGGCCAGUCGUGUCUCCAGUGAUGUCAUUGACCAGAAGGUGUAUGAGAUCCAGGACAUCUAUGAGAACAGCUGGACCAAGCUGACUGAAAGACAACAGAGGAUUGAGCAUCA | 0.148 ratio
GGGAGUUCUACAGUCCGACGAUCUGUUUCUUUCUUGAAAGAAGUGGAGUCUCCUUAUGAAGUCCAUGACUAUACCAGGGCCUAUUUAGGAGAUACUUCCGAGGCCAAGGAGUUUGCCAAGCAGUUCCUUGAACGCCGUGCCAACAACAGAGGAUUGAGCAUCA | 0.103 ratio
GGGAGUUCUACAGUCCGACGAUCGAGGUUACCGUGGAAACAGACAAGAAAACUCAUUAUGGGCUACUCUUUGAUGAAUUUCAAGGCCUUUCACAUCUAGAAGCUCUGGAGAUGCUUUCCCAAGAAAGUGAAAUAAAGGUGAAACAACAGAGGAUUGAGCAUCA | 0.336 ratio
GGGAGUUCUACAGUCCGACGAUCCUCCCGGGGGGAGUCCAGGCCUUGGCUUUACCCAACGAAGAGGGUGCCACACCAUUAGACUUAGCUUUACGUGAAGGACACUCCAAGCUGGUGGAAGACGUCACAAAUUUUCAGGGCAGACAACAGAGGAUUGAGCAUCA | 0.622 ratio
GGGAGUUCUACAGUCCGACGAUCGCUCACAUCGUAAAUGACUUUCUCUCCGAAACGCUAAAUAUUCUUUCCCGCAGGAGCUCAUAUCCUUAUUUUCCAUGACAGAUCUUAACGACAAUAUAUGCAAAAGAUAUAUAAAGAUGACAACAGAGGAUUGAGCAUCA | 0.316 ratio
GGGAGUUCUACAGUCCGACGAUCUUCUCCGUACUUUUCUCUGAAAGGAAUCUUGUCUUGUUAAACCCUAAAGAGAGUGUCCUUAAUAGCAAUCAGCACUUGUAAGCUUAUAUACUGGUGCAUUUGGUUUUCUGUUGGGUGAAUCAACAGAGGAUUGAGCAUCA | 0.471 ratio
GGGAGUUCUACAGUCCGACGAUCGUCACUUGUGUUGCUGCCUCUCCUCACAAGGACUCUGUGUUUCUUUCAUGCAGCGAGGACAAUAGAAUUUUACUCUGGGAUACCCGCUGUCCCAAGCCAGCAUCACAGAUUGGCUGCAGUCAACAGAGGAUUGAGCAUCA | 0.573 ratio
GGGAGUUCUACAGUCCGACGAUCAAUACAGAAUUUGGAGCAUUUGUAGGACACAGAGAUAGCAUGGAUUUACAGAGGUUUAAAGAAACAUCAAACAAGAUAAAAAUACUAUCCAAUAACAAUACUUCUGAAAACACUUUGAAACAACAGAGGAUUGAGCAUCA | 0.367 ratio
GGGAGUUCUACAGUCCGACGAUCAGUUCAGAGUCCGGAGCUGCGGUGGUGGCGGCGAAGGCGAGAGUCAUGGCUGGACAAGCUUUUAGGAAGUUUCUUCCGCUCUUUGACAGAGUAUUGGUUGAAAGGAGUGCUGCCGAAACUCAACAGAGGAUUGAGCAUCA | 0.19 ratio
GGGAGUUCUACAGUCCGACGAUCUAACUAUUCAUUUUUAGCUUUUGUCUCCAGUGCAUGAUCUCAUAUUUUUGCUUUUAUUUUUAGUAUAAGAACAUUUAUAAAAUCAUAUUUUUGUUACUGCAAUUGUUUUAUUUGUUGUGUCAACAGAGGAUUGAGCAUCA | 6.07 ratio

Repeated from above (set 4):
Strand | E-score
CGACCACG | -0.0428
AATGACAA | -0.0369
CAAATTCC | -0.0998
CTCTGACC | -0.0526
TACAAGGA | -0.0281
CCGTCTGA | -0.0609
CGGTATAA | 0.00705
TGATAGAA | -0.00968
AGTGCGAC | 0.0911
